# Experimental data pooled from the literature.
# Each line is one published result; not all experiments were run side by side. ± gives the spread as reported.
# Cell line: HEK293
Compound,assay,setting,how to read,measurement,value
COc1cc(NC(=O)c2ccccc2[N+](=O)[O-])ccc1S(N)(=O)=O,"cell viability, MTT",48 h,,IC50,> 100 µM
O=c1[nH]c(CCl)nc2scc(-c3cccc(F)c3)c12,"cell viability, resazurin",24 h,,EC50,6.5 ± 0.5 µM
COc1cccc(C(=O)Nc2ccc(S(N)(=O)=O)c(OC)c2)c1,"cell viability, MTT",48 h,,IC50,> 100 µM
O=c1[nH]c(CCl)nc2scc(-c3ccc(F)cc3)c12,"cell viability, resazurin",24 h,,EC50,3.9 ± 0.4 µM
O=C(NCCCNS(=O)(=O)c1ccc(OC(F)(F)F)cc1)C1=Cc2ccccc2S1(=O)=O,"immunoblotting, refers to: REST protein","3 µM, 3 days",baseline: DMSO,protein level,< 40%
Cc1ccc(C)c(COc2cc(NC(=O)c3ccc(Cl)c(Cl)c3)ccc2NC(=N)N)c1,"cell growth, MTT",48 h,,IC50,> 500 µM
CC(C)C[C@@H](C=O)NC(=O)[C@H](CC(C)C)NC(=O)[C@H](CC(C)C)NC(=O)OCc1ccccc1,refers to: CD4 signal peptide-FLuc reporter,"concentration not given, 2 h, time-course chase, unit not given, together with: cycloheximide",baseline: untreated,FLuc activity,1.06
COc1cc(NC(=O)c2ccco2)ccc1S(N)(=O)=O,"cell viability, MTT",48 h,,IC50,> 100 µM
O=c1[nH]c(CCl)nc2scc(-c3ccc(C(F)(F)F)cc3)c12,"cell viability, resazurin",24 h,,EC50,3.9 ± 0.3 µM
CCN(CCO)CCCC(C)Nc1ccnc2cc(Cl)ccc12 (stereo not shown),protein secretion,"concentration not given, unit not given",baseline: mock,secreted Gaussia luciferase,0.324

# Excerpt of the above:
Compound,assay,setting,how to read,measurement,value
CC(C)C[C@@H](C=O)NC(=O)[C@H](CC(C)C)NC(=O)[C@H](CC(C)C)NC(=O)OCc1ccccc1,refers to: CD4 signal peptide-FLuc reporter,"concentration not given, 2 h, time-course chase, unit not given, together with: cycloheximide",baseline: untreated,FLuc activity,1.06
